Experimental data collected from several papers.
Each numbered part is a random draw from the data of one study; scales do not carry over between parts. Positions count from the first letter of the parent shown.

Series 1
Target: CCNA2, cyclin fold, Cln2 fusion (human)
Method: yeast growth competition, sequencing
Matrix: yeast
Notes: strong parent motif
Reference: not given
Reading: higher = stronger binding
Endpoint: normalised enrichment score
Parent: viral docking peptide; KGVKRKLFAEDSS; partner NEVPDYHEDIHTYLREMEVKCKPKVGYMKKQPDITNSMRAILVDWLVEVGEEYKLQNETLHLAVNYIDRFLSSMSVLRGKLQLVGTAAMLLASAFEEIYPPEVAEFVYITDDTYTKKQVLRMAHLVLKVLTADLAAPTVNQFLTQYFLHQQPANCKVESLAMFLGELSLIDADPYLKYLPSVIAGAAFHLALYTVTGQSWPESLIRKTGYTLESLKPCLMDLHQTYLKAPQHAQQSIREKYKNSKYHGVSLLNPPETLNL
L7D: 0.271
K6H: 3.42
E10F: 5.38
R5S: 0.373
L7K: 0.383
S12P: 6.77

Single results of other studies
ADRB1: Beta-1 adrenergic receptor (ADRB1, Homo sapiens, UniProt P08588)
UniProt P08588, sequence (whole entry, looked up): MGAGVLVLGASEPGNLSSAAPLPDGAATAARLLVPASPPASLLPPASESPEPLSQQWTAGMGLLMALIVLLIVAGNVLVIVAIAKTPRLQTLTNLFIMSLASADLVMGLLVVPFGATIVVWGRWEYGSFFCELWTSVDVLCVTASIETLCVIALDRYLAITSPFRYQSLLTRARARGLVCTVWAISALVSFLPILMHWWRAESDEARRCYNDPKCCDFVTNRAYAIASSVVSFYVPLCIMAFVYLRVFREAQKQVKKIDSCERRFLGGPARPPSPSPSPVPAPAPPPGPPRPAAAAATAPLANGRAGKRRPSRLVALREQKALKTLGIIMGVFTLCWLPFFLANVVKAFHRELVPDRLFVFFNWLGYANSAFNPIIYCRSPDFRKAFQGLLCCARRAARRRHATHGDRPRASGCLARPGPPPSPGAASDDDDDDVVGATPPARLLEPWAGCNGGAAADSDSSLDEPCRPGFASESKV
SLC6A3: Sodium-dependent dopamine transporter (SLC6A3, Homo sapiens, UniProt Q01959)
UniProt Q01959, sequence (whole entry, looked up): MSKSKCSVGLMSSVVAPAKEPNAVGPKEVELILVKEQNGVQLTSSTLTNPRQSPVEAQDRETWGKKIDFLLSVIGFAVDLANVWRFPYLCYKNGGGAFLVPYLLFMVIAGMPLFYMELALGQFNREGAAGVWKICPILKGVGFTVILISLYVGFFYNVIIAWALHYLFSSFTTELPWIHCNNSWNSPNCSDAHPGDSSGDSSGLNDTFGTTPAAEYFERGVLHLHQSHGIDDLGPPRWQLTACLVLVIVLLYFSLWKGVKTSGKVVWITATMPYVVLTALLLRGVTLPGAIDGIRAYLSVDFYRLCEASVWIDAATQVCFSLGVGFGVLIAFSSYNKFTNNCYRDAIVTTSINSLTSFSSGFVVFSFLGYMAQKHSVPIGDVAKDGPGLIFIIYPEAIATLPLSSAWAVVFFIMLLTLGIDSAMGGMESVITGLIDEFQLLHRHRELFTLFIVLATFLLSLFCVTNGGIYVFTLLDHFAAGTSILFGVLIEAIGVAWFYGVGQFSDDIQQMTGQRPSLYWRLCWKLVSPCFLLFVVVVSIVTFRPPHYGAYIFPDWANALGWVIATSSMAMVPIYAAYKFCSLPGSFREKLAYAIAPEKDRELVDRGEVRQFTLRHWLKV
CCC(O)c1cc2n(n1)CCN(c1nc(-c3ccccc3)nc3c1CCC3)C2 (stereo not drawn)  IC50 (ADRB1; antagonist): ≥ 100 µM
Clc1ncccc1C1Cc2ccccc2C2=NCCN21 (stereo not drawn)  remaining compound (mouse, microsomes or S9; 2 µM, 0.5 h): 77.9%
O=C(NNS(=O)(=O)c1ccccc1)c1cc(-c2ccnnc2)ccc1F  Ki (SLC6A3; binding, radioligand binding): > 10 µM
CNCCc1ccc(O)c(O)c1  IC50 (ADRB1; antagonist): ≥ 100 µM
Cc1ccc(-c2cnc([C@@]3(O)CC[C@H](C(=O)O)C(C)(C)C3)s2)cc1Nc1cccc(C(F)(F)F)n1  Ki (SLC6A3; binding, radioligand binding): > 10 µM
O=C1CCC(N2Cc3c(ccc4c3OCC43CCN(Cc4ccccc4)CC3)C2=O)C(=O)N1 (stereo not drawn)  half-life (metabolic stability; human, liver microsomes; 1 µM): 1.39 h
